Measured values gathered from unrelated publications.
Each numbered part is a random draw from the data of one study; scales do not carry over between parts. Converted amounts (≈) assume the structure as drawn.
Chain of UniProt O94925 (whole entry, looked up): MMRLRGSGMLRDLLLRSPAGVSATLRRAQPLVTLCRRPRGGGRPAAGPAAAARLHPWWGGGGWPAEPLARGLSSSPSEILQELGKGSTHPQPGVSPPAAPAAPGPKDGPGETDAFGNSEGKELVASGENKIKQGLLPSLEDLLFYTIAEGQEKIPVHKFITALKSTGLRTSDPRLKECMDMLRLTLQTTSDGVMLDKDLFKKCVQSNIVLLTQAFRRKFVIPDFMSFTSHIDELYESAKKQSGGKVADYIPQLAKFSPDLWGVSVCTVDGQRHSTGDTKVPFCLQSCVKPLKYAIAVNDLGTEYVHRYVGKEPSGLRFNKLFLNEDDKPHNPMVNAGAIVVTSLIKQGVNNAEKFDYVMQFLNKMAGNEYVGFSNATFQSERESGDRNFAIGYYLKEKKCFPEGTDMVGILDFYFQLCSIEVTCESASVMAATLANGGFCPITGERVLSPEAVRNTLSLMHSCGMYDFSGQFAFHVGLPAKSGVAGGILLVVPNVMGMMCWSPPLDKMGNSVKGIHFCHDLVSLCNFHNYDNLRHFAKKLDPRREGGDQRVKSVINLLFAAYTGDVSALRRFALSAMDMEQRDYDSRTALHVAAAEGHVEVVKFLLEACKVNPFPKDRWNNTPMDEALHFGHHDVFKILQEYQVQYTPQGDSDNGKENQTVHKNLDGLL

Sample 1 — time: 18 h; temperature: 37 °C
Compound: CC[C@H](C)[C@H](NC(=O)[C@H](C)NC(=O)[C@H](CCC(=O)O)NC(=O)[C@H](Cc1c[nH]cn1)NC(=O)[C@@H](NC(=O)[C@H](CCCCN)NC(=O)[C@H](CCC(N)=O)NC(=O)[C@H](Cc1ccccc1)NC(=O)[C@@H](NC(=O)[C@H](CCCCN)NC(=O)[C@H](CCCCN)NC(=O)[C@H](CC(C)C)NC(=O)[C@H](C)NC(=O)[C@H](CC(N)=O)NC(=O)[C@@H](N)CC(C)C)C(C)C)[C@@H](C)CC)C(=O)N[C@@H](CCCCN)C(N)=O
| organism | method | strain | MIC [µM] |
| --- | --- | --- | --- |
| Staphylococcus aureus |  | USA300, resistant | 4 (≈ 7.52 µg/mL) |
| Staphylococcus aureus | broth microdilution | ATCC 25923 | 4 (≈ 7.52 µg/mL) |
| Pseudomonas aeruginosa |  | 4007, resistant | 4 (≈ 7.52 µg/mL) |
| Escherichia coli | broth microdilution | ATCC 25922 | 4 (≈ 7.52 µg/mL) |
| Listeria monocytogenes | broth microdilution | KCTC 3710 | 16 (≈ 30.1 µg/mL) |
| Pseudomonas aeruginosa |  | 4891, resistant | 8 (≈ 15 µg/mL) |

Further values, each from its own experiment
MAOA: Amine oxidase [flavin-containing] A (MAOA, Homo sapiens, UniProt P21397)
Chain of UniProt P21397 (whole entry, looked up): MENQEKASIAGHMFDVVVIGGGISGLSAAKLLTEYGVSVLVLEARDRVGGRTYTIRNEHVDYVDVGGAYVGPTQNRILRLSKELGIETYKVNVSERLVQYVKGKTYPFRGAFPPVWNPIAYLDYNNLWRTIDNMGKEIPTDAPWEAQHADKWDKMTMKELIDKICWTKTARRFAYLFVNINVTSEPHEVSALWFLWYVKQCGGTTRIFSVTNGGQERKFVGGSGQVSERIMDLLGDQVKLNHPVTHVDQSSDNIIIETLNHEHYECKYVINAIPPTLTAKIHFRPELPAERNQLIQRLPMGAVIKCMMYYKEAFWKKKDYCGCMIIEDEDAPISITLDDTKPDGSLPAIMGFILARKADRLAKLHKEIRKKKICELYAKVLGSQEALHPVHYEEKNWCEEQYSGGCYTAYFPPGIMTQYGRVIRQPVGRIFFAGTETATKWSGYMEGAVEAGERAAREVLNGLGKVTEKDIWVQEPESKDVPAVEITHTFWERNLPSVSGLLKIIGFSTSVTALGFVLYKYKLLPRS
| Structure (SMILES) | tested on | assay | system | setting | scale | measurement | value |
| --- | --- | --- | --- | --- | --- | --- | --- |
| NC1CC1c1ccc(NC(=O)c2cccc3ccccc23)cc1 (stereo not drawn) | MAOA | enzyme activity, inhibitor, HRP-coupled |  | 100 µM, added: kynuramine substrate |  | inhibition | 96% |
| N[C@H](CC[As](O)O)C(=O)O | GLS (Homo sapiens, UniProt O94925) |  |  |  |  | Kd | 40 µM |
| CSCC[C@@H]1NC(=O)[C@@H](Cc2ccccc2)NC(=O)[C@H](CC(=O)O)NC(=O)CNC(=O)[C@H](CCCNC(=N)N)NC1=O | U-87 MG |  |  | 48 h, 10% FBS |  | IC50 | > 10 µM |
| NC1CC1c1ccc(NC(=O)Cc2ccccc2)cc1 (stereo not drawn) | MAOA | enzyme activity, inhibitor, HRP-coupled |  | 100 µM, added: kynuramine substrate |  | inhibition | 96% |
| CC(C)(C)[C@H]1CC[C@H](Oc2cc([18F])c3ccccc3c2CN2CCC(C(=O)O)CC2)CC1 |  |  | macaque, plasma | 5 min | baseline: radioactivity | parent radiotracer | ~100% |
| CC1=CC(=O)[C@@H](O)[C@]2(C)[C@H]3[C@@H](O)[C@H](O)[C@@]4(C)OC[C@@]35[C@@H](C[C@@H]12)OC(=O)[C@H](O)[C@]54O | human cells |  |  | 48 (unit not given) |  | CC50 | 0.38 µM |

A few entries again (sample 1):
| organism | method | strain | MIC [µM] |
| --- | --- | --- | --- |
| Staphylococcus aureus | broth microdilution | ATCC 25923 | 4 (≈ 7.52 µg/mL) |
| Pseudomonas aeruginosa |  | 4891, resistant | 8 (≈ 15 µg/mL) |
